Published values gathered from unrelated publications.
Every numbered part comes from another study and shows a few of its results, in no order. Substitutions count along the parent as printed.

Study 1 — technique: RNA Bind-n-Seq; form: RNA; sample: in vitro; tested at: 200 nM; setting: whole 134-nt RNA, ends assumed; together with: 150 mM KCl; reference: input library; direction: higher = stronger binding
Target: Ras GTPase-activating protein-binding protein 1, full length (G3BP1, Homo sapiens, UniProt Q13283)
UniProt Q13283, sequence (whole entry, looked up): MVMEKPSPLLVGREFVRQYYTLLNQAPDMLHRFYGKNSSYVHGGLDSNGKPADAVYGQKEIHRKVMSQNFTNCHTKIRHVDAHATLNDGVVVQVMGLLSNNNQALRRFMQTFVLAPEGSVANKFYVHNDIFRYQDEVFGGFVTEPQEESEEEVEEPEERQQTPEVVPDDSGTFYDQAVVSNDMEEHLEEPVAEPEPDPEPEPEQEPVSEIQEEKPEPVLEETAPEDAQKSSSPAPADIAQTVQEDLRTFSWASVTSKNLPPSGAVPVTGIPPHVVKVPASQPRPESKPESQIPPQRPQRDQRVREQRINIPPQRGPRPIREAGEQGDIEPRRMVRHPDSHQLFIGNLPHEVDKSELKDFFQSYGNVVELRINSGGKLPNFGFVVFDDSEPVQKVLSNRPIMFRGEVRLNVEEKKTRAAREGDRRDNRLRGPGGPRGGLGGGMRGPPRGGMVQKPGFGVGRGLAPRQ
| Strand | log2 enrichment |
| --- | --- |
| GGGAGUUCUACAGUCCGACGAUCUUGCUUCAAGAAGAUCCCUAAGCUGUAGAACAUUUUAACGUUGAUGCCACAACGCAGAUUGAUGCCUUGUAGAUGGAGCUUGCAGAUGGAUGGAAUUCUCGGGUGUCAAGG | 0.507 |
| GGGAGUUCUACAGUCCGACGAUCCUCAAGUCCUGUGCUACACAUCGUAUGUACCGAAUCGGGUUGGUUGGGGUUGGGAAAGUAUUAUGUUACGCCGUUCGGAUCUGCACUUCCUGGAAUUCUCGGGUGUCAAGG | 0.658 |
| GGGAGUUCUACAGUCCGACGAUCUGCUCUCCGUGCCACAUGCGCCCGCAGGUUACGCCAAGGAGGCCCUGAAUCUGGCGCAGAUGCAGGAGCAGACGCUGCAGUUGGAGCAACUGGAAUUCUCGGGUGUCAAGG | -2.87 |
| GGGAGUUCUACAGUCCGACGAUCUGGCCCUGGUGGCAUGCGGGGAGGAAGAGGUGGCCUCAUGGAUCGUGGUGGUCCGGGUGGAAUGUUCAGAGGUGGCCGUGGUGGAGACAGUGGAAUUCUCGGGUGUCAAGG | 0.141 |
| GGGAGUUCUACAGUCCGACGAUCUCCUGUGCUACACAUCGUAUGUACCGAAUCGGGUUUUUUUGGGAAAAAGGGUUUUUGGGAAAGUAUUAUGUUACGCCGUUCGGAUCUGCAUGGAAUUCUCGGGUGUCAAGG | -0.379 |
| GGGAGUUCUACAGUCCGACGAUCAAGUCCUGUGCUACACAUCGUAUGUACCGAAUCGGCCCCCGGCCCCCGGCCCCCGGAAAGUAUUAUGUUACGCCGUUCGGAUCUGCACUUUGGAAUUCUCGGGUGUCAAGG | -0.408 |
| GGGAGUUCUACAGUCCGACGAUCGCAGGAAGUAAAAACAAAUGGAAAUGCUUCGGAUAGUGGCAGGGGUGGGGGUUGCUAAGGAAAGGGUGGGAUGGGAGUGGGCAAAGAGUUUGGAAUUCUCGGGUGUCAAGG | 1.25 |
| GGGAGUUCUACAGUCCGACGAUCCAAGUCCUGUGCUACACAUCGUAUGUACCGAAUCGGUUUGGAAAAAAAGGUUUGGAAAGUAUUAUGUUACGCCGUUCGGAUCUGCACUUCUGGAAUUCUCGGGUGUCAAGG | -1.24 |
| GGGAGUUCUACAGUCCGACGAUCCUGUGCUACACAUCGUAUGUACCGAAUCGGGGUUUUUUUGGGGAAAAAGGGGAAAAAGGGGAAAGUAUUAUGUUACGCCGUUCGGAUCUGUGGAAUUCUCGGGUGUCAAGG | -0.221 |
| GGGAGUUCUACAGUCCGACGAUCGUCCUGUGCUACACAUCGUAUGUACCGAAUCGGGGUUUUUUGGUUUUUUGGUUUUUUGGAAAGUAUUAUGUUACGCCGUUCGGAUCUGCAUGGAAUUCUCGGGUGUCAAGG | -0.863 |

Study 2 — technique: RNAcompete; form: RNA; sample: in vitro; tested at: 20 nM; setting: 7-mer, probes averaged, single round; reference: mean of 7-mers; direction: higher = stronger binding
Target: PABPC1L2, full length, GST fusion (mouse, UniProt A0ABA7IW68)
Residues (chain): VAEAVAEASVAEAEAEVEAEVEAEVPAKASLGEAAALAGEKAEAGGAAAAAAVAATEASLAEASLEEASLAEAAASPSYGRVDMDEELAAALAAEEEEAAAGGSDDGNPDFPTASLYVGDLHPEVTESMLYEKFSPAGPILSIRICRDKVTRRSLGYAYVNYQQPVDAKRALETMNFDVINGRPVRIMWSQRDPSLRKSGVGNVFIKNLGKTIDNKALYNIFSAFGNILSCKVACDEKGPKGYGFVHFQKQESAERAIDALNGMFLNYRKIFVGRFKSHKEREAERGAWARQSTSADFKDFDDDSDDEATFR
| Strand | 7-mer Z-score |
| --- | --- |
| CCCGGUA | -0.284 |
| GAGGGAU | 0.187 |
| AAGUCGG | -0.00289 |
| UCGCUUC | -0.532 |
| UCGUUAC | -0.358 |
| CGCCGCG | -0.492 |
| AGGCCCU | -0.269 |
| UGGUCUU | -0.378 |
| CGGCGAU | -0.0192 |
| UGGCUUU | -0.126 |
| CAGGUGG | 0.106 |
| GUAACUC | -0.215 |
| CAUGCAU | -0.291 |
| GAGUAGC | -0.2 |
| ACUCGAC | -0.0899 |
| CGGUAGC | -0.0319 |
| UAAGAGC | -0.133 |
| GUUUCGG | -0.441 |
| UUGUAGC | -0.347 |
| AACUAAA | 1.47 |
| CAUGCUA | -0.0935 |
| AGUUCGC | -0.42 |
| AACACGC | 0.244 |
| AUGUGAC | -0.00833 |
| CCGUUAC | -0.233 |

Study 3 — technique: protein binding microarray; form: double-stranded DNA, one strand shown; sample: in vitro; tested at: not given; reference: not given; direction: higher = stronger binding
Target: Histone acetyltransferase KAT6A, winged helix 2, GST fusion (KAT6A, Homo sapiens, UniProt Q92794, residues 85-181)
Setting: 8-mer, flanks averaged, mean of 2 arrays, mostly near background
Target sequence (chain): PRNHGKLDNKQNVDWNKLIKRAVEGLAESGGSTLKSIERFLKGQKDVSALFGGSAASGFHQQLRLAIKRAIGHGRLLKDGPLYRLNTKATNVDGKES
| Strand | E-score |
| --- | --- |
| AACCTCCT | -0.206 |
| AGAATCAC | -0.00357 |
| CACCCTAC | -0.154 |
| ATCGACGC | -0.00685 |
| CAAGAGCC | 0.104 |
| AGCCCAAT | -0.0321 |
| ACCGAGGC | -0.119 |
| AGAAGTAG | -0.0944 |
| ATCATCCC | -0.00915 |
| GGCTTCCC | 0.0924 |
| AACTCAGA | 0.124 |
| GCTATGAA | 0.177 |
| AGTATGTA | -0.217 |
| AACTTCAC | -0.102 |
| GCCAGCTA | -0.0478 |
| AACGTGGC | -0.0582 |
| ATAAGGGC | -0.0858 |
| CGCCCCCA | -0.0725 |

Study 4 — technique: RNA Bind-n-Seq; form: RNA; sample: in vitro; tested at: 100 nM; reference: input RNA pool; direction: higher = stronger binding
Target: RING finger protein unkempt homolog, zinc fingers 1-6, SBP tag (UNK, Homo sapiens, UniProt Q9C0B0, residues 30-357)
UniProt Q9C0B0, sequence (30-357, looked up): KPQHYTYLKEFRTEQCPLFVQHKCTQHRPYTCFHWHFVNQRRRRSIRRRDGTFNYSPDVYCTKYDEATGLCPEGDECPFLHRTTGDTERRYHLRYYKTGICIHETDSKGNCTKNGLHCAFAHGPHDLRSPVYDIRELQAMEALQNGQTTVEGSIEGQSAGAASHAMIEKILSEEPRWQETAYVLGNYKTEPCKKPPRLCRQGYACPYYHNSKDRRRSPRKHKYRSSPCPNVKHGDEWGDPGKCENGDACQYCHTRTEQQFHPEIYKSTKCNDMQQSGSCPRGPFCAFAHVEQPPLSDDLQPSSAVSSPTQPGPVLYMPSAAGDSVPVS
Setting: RNA with constant flanks, vertebrate orthologous sites, ends assumed
| Strand | bound/input enrichment |
| --- | --- |
| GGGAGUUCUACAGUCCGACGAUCCCUACAAUAAUGAAAACUUACAGGAAUUUUUUUAUUUUUCAUUUCCCCCUUAGGCAUACUUAGUCUUUUUUUCCCCAGGCAGAUGAUUCUGAGUGUGCGAGUGUGUGCACAUGUUACAGACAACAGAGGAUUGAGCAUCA | 1.76 ratio |
| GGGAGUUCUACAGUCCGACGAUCGUUCCCGAGCAGCAGUUAGACAGGUUUCCCUCUAUUCUCUCAAAAAGCAAAAGGCCCCCGGAGAUUCCCUACCCACCCAACUAUACUGUUCUGGGCUUGUUUCCUGUUAUCUUUCACAUACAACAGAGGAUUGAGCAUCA | 0.602 ratio |
| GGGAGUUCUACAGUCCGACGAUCUCCAGCCUCAGCUGAGUGUUUCACAGCAUUCCUUACACAGCUAUUUAACAAGUACGAGUGGAGUUAACUUUCAGGAUACGUCUAGGCACUCGGCGUUAUCCUGCAGUCCAGUUGCAGAUGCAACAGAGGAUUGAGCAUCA | 0.159 ratio |
| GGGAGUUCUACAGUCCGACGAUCCGUAGCAUCGAGAGUGUGUGUGUUCUCACACUUGUACUCUCACAAAGAAGAGAGCUCACAUUGGUCCUUACACAACCGAUGAUGCUGUUCUGUUUCUGCUUUCUAUUUUUACAUAUGCAUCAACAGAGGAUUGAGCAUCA | 0.744 ratio |
| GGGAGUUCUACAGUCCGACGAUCCCGAAAGGCCAAAUUCCCUCCUCCCUUCUACUGCUUCUACCAACUGGAAGCACAGAAAACUAGAAUUUCAUUUAUUUUGUUUUUAAGAAAUACAUGUUGGUUUCUUGUAACAUCCAAUAGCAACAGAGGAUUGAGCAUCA | 0.498 ratio |
| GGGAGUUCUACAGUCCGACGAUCAUCCCUCAGUGACAGUAUGCCAUCUGUAGCAGAUUCCCACUCUAGUCAUUUCUCUGAAUUUAGUUGUUCUGACUUAGAAAGCAUGAAAACUUCUUGCAGUCAUGGUUCCAGUGAUUAUCACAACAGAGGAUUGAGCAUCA | 0.998 ratio |
| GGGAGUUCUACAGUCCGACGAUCGAAGGGCUGCGUAGAGUAGGGCGUGUUCUGCUUAGCUCACUGCUUCUUGAUUUCCCUUUUUAGGGGUGGGGCAGGGUUGCGGACACAUCAGCGGGAGCUGCCGCGAGUCACCUCAUAUUUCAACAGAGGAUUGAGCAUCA | 0.775 ratio |
| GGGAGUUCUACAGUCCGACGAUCGGGACGCUUUGAGGUAAAAAUUUUAAUUAAGAGCUGAUCACAAGCACAAAACUUUCCCACUAGCCAUUUAAUAAGUUAAAAAAGAUACACAAACCUACUAGUCUUGAACAAACUGUCAUACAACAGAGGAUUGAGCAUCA | 2.58 ratio |
| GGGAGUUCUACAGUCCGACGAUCUGAAGAUUAUUAAAGGAAGCCCCUGUGAGCUCCAACAUCUAAUUUCUUUAGAUAUUCUAAUGUCAUUUUUGUUGGAACUGUAUAUUGACAGUUCUUAUCUAAGCCUUCAUAAGGAGAAGACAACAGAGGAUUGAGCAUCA | 0.248 ratio |
| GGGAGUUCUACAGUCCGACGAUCAGUUAAUGAUGCUAUUGUGUUAGUAAACAAAAUUACUUAUCAGCAACUUUGUUUAUCAUACAAUAUUUUGCAUAAAACAAUUUGUAUACCAAGGCUUUUUAGUGGCCAUAAAUGGCUUUUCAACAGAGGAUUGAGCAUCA | 0.343 ratio |
| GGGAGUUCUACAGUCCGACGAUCGUGAGGGUCUACUGGCCACUCACUGUUAUGUCUGGUAUCUGUAAACACUCUUUUUGUUCUUAGUCUUUUUCUUGUAUAAUUGAUGUUCUUUAAAAUUGUUAAUGUAUAACAGGGCUUAUGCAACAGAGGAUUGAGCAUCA | 2.43 ratio |

Study 5 — target: CCNE1, cyclin fold, Cln2 fusion (human); technique: yeast growth competition, sequencing; sample: yeast; setting: weak parent motif; reference: not given; direction: higher = stronger binding
Parent: CDC6 docking peptide (human); TLKGRRLVFDNQL
| Variant | normalised enrichment score |
| --- | --- |
| TLKGSRLVFDNQL [R5S] | -0.245 |
| TLKGRRLSFDNQL [V8S] | 0.599 |
| TLKGRRLVFDLQL [N11L] | 0.452 |
| TLKGRRLCFDNQL [V8C] | 0.815 |
| TYKGRRLVFDNQL [L2Y] | 1.83 |
| TLKGRRLVSDNQL [F9S] | 0.0785 |
| TLKGRRWVFDNQL [L7W] | 0.756 |
| TCKGRRLVFDNQL [L2C] | 0.202 |
| TKKGRRLVFDNQL [L2K] | 0.8 |
| KLKGRRLVFDNQL [T1K] | 0.921 |
| TQKGRRLVFDNQL [L2Q] | 0.235 |
| TLKGDRLVFDNQL [R5D] | 0.258 |
| TLKGNRLVFDNQL [R5N] | 0.368 |
| TLKGRRLVFANQL [D10A] | -0.148 |
| TLKGRRIVFDNQL [L7I] | 0.333 |

Excerpt of the above (study 5):
| Variant | normalised enrichment score |
| --- | --- |
| TLKGRRWVFDNQL [L7W] | 0.756 |
| TCKGRRLVFDNQL [L2C] | 0.202 |
| TKKGRRLVFDNQL [L2K] | 0.8 |
| KLKGRRLVFDNQL [T1K] | 0.921 |
